Experimental data pooled from the literature.
Lines come from different studies, so protocols differ. ± gives the spread as reported. Ends that are not written are not given here. No end group written: not given here.
TLR4/LY96: Toll-like receptor 4/MD-2 (TLR4/LY96, Homo sapiens, UniProt O00206+Q9Y6Y9)
Sequence of UniProt O00206 (whole entry, looked up): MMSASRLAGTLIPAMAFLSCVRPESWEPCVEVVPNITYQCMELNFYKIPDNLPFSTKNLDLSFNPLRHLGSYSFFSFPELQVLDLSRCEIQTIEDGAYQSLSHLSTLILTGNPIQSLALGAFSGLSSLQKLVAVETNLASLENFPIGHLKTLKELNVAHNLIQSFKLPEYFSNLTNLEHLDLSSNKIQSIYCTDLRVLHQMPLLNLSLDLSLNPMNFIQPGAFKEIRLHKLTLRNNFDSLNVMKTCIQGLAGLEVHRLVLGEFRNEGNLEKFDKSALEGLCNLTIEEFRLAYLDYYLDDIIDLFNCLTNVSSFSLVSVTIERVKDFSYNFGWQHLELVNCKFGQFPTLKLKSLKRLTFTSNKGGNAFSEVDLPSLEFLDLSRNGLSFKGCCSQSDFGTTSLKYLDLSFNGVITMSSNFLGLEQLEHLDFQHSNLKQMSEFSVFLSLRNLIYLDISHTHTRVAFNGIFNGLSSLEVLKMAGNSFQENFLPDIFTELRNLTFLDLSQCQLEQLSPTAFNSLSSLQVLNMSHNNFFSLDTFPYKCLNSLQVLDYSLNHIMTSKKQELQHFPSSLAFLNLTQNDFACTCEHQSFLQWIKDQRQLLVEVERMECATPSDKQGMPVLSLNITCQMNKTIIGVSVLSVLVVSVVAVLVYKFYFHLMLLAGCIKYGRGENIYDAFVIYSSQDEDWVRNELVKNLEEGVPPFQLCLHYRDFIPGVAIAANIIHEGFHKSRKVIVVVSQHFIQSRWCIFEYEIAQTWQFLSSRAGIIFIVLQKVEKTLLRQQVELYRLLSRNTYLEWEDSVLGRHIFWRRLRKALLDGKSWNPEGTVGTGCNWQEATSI
Sequence of UniProt Q9Y6Y9 (whole entry, looked up): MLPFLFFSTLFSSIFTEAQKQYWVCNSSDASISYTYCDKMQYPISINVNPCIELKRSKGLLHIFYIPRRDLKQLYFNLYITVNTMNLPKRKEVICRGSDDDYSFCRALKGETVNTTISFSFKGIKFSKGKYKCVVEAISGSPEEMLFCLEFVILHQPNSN
ITGAM: ITGAM (Homo sapiens, UniProt P11215)
B1: UGT1A9 (Homo sapiens, UniProt O60656); chain GKLLVVPMDGSHWFTMRSVVEKLILRGHEVVVVMPEVSWQLGRSLNCTVKTYSTSYTLEDLDREFKAFAHAQWKAQVRSIYSLLMGSYNDIFDLFFSNCRSLFKDKKLVEYLKESSFDAVFLDPFDNCGLIVAKYFSLPSVVFARGILCHYLEEGAQCPAPLSYVPRILLGFSDAMTFKERVRNHIMHLEEHLLCHRFFKNALEIASEILQTPVTEYDLYSHTSIWLLRTDFVLDYPKPVMPNMIFIGGINCHQGKPLPMEFEAYINASGEHGIVVFSLGSMVSEIPEKKAMAIADALGKIPQTVLWRYTGTRPSNLANNTILVKWLPQNDLLGHPMTRAFITHAGSHGVYESICNGVPMVMMPLFGDQMDNAKRMETKGAGVTLNVLEMTSEDLENALKAVINDKSYKENIMRLSSLHKDRPVEPLDLAVFWVEFVMRHKGAPHLRPAAHDLTWYQYHSLDVIGFLLAVVLTVAFITFKCCAYGYRKCLGKKGRVKKAHKSKTH
B2: erenumab; V domains shown; sequence looked up; VH QVQLVESGGGVVQPGRSLRLSCAASGFTFSSFGMHWVRQAPGKGLEWVAVISFDGSIKYSVDSVKGRFTISRDNSKNTLFLQMNSLRAEDTAVYYCARDRLNYYDSSGYYHYKYYGMAVWGQGTTVTVSS; VL QSVLTQPPSVSAAPGQKVTISCSGSSSNIGNNYVSWYQQLPGTAPKLLIYDNNKRPSGIPDRFSGSKSGTSTTLGITGLQTGDEADYYCGTWDSRLSAVVFGGGTKLTVL
B3: bovine β-casein; sequence looked up; chain RELEELNVPGEIVESLSSSEESITRINKKIEKFQSEEQQQTEDELQDKIHPFAQTQSLVYPFPGPIPNSLPQNIPPLTQTPVVVPPFLQPEVMGVSKVKEAMAPKHKEMPFPKYPVEPFTESQSLTLTDVENLHLPLPLLQSWMHQPHQPLPPTVMFPPQSVLSLSQSKVLPVPQKAVPYPQRDMPIQAFLLYQEPVLGPVRGPFPIIV
Sequence of UniProt Q9UNE7 (whole entry, looked up): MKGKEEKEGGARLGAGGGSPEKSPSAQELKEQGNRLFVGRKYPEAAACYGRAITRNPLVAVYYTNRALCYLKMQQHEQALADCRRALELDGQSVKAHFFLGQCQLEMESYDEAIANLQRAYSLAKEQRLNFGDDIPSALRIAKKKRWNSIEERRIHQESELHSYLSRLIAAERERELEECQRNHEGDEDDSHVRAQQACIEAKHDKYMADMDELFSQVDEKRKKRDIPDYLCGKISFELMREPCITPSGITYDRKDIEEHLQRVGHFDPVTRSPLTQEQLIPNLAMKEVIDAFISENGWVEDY
Sequence of UniProt Q8IXJ6 (whole entry, looked up): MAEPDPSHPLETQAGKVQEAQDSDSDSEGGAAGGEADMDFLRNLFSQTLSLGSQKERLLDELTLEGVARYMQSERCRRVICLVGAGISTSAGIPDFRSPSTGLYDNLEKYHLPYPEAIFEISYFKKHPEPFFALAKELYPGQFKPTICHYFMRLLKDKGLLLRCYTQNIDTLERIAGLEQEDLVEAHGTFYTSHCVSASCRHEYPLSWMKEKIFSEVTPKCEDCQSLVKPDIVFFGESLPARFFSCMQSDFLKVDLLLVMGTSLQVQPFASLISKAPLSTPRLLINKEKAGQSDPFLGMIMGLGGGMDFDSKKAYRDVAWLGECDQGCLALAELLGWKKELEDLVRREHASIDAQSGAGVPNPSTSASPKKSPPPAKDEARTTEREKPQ
Sequence of UniProt Q9FII5 (whole entry, looked up): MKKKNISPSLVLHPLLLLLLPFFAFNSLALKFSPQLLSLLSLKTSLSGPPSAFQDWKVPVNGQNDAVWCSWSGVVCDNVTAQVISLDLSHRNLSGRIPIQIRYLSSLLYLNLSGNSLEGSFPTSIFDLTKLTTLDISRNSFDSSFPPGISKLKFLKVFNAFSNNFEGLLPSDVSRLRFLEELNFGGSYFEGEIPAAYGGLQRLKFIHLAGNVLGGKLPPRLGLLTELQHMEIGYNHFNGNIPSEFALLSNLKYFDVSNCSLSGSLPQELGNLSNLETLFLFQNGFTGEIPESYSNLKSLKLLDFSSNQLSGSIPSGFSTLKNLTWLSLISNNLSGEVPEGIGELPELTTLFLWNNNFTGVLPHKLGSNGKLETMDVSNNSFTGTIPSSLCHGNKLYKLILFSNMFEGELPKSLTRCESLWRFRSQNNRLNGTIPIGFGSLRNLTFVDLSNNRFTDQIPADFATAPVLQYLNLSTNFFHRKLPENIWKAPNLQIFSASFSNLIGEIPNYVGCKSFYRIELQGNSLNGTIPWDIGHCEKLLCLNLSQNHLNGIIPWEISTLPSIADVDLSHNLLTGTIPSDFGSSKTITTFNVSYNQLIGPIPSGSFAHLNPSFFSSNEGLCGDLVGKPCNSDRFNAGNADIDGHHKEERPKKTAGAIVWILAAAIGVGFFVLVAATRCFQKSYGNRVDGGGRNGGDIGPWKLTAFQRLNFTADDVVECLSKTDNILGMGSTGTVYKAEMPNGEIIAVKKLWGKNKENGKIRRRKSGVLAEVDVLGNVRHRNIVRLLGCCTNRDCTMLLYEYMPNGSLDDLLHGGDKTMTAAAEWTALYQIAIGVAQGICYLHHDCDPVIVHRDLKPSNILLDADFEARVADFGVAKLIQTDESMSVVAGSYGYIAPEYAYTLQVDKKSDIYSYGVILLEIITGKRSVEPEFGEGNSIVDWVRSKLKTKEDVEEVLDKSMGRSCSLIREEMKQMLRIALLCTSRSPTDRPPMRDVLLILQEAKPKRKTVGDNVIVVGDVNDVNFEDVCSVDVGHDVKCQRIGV

Substance | target or system | test | test system | setting | how to read | measurement | value
human neutrophil elastase | TLR4/LY96 | ELISA | – | 70 min, 37 °C | – | Kd | > 100 nM
HEVPSGPNPISA (TDIF N12A; also: GST tag, end not given here) | Leucine-rich repeat receptor-like protein kinase TDR, LRR domain (TDR, Arabidopsis thaliana, UniProt Q9FII5) | GST pull-down | peptide | concentration not given, Arabidopsis | – | binding | decreased
EYSEEELKT (also: fluorescent label and quencher, sites not given here; sequence looked up) | NAD-dependent protein deacetylase sirtuin-2 (SIRT2, Homo sapiens, UniProt Q8IXJ6) | enzyme activity, substrate, continuous fluorescence | peptide | 5 to 15 min, pH 7.4, 37 °C, enzyme 0.3 µM, buffer 1, together with: NAD+ 1 mM | – | Km | 1.05 ± 0.17 µM
plasminogen | ITGAM | binding | – | – | – | Kd | 100 nM
B1 (UGT1A9) | O=c1cc(-c2cccc(O)c2)oc2ccccc12 | steady-state kinetics | – | pH 7.4, 37 °C | – | Vmax/Km | 458 µL/min/mg
human cathepsin G | TLR4/LY96 | ELISA | – | 70 min, 37 °C | – | Kd | > 100 nM
B2 (erenumab) | CALCRL/RAMP1 on cells (Homo sapiens) | cAMP production, antagonist, Schild analysis | antibody, HEK293S | together with: αCGRP | – | pKB | 8.64
TPDYLMQLMNDKKLMSSLPNFSGAFNHLERLLDEEISRVRKDMYNDTLNGSTEK (Qki 14-67 C35S/I37A (Mus musculus, UniProt Q9QYS9)) | itself | CD thermal melting | – | 50 µM | – | melting temperature | 67 °C
rat amylin | Islet amyloid polypeptide (IAPP, Homo sapiens, UniProt P10997) | circular dichroism | – | 1 molar equivalents | – | aggregation lag time | 50 min
human Hsc70 | E3 ubiquitin-protein ligase CHIP (STUB1, Homo sapiens, UniProt Q9UNE7) | binder, biolayer interferometry | – | pH 7.4, 25 °C, kinetic, koff/kon | – | Kd | 70 ± 10 nM
angiostatin | ITGAM | binding | – | – | – | Kd | 400 nM
B3 (bovine β-casein) | Chymotrypsinogen A (Bos taurus, UniProt P00766) | substrate digestion, substrate | – | 0.2 mg/mL, pH 8.0, 37 °C | reference: CTRB1 | relative digestion rate | 0.93 fold
